Results collected from several papers.
A part holds a random share of what one study measured.

Study 1 — method: protein binding microarray; molecule type: double-stranded DNA, one strand shown; sample: in vitro; tested at: not given; reference: not given; reading: higher = stronger binding
Target: Histone acetyltransferase KAT6A, winged helix 1, GST fusion (KAT6A, Homo sapiens, UniProt Q92794, residues 1-85)
Setting: 8-mer, flanks averaged, mean of 2 arrays, mostly near background
Construct (chain): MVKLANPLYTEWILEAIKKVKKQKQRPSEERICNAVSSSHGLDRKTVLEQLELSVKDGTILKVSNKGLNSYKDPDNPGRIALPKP
For `CTAGCGGC`, the E-score was 0.399.
`ACTACAGC` gave an E-score of -0.0241.
With `GCGTATCC` the E-score was 0.15.
The E-score of `AACACGTA` is reported as -0.0283.

Study 2 — method: aptamer microarray, sandwich; molecule type: DNA with 2'F-ANA; sample: in vitro; tested at: 200 nM; together with: Cy3 exosite-II aptamer, 400 nM; reading: higher = stronger binding
Target: Prothrombin, mature alpha-thrombin (F2, Homo sapiens, UniProt P00734)
Setting: whole 15-mer aptamer, many near background
For `GGTTGGTGTGGTTGG (2'F-ANA at 1 2 3 5 7 9 11 12 13)`, “mean fluorescence intensity” read 72.3 a.u.
`GGTTGGTGTGGTTGG (2'F-ANA at 6 8 9 10 12 13 14 15)` — result for “mean fluorescence intensity”: 101 a.u.
For `GGTTGGTGTGGTTGG (2'F-ANA at 1 2 3 5 7 8 10 11 13 14)`, “mean fluorescence intensity” read 46.5 a.u.
`GGTTGGTGTGGTTGG (2'F-ANA at 4 5 6 8 10 11 14)`: “mean fluorescence intensity” 46.8 a.u.

Study 3 — method: universal PBM; molecule type: double-stranded DNA, one strand shown; sample: in vitro; tested at: not given; reading: higher = stronger binding
Target: Sal-like protein 4, full length isoform B (SALL4, Homo sapiens, UniProt Q9UJQ4-2, residues 1-616)
Setting: 8-mer, flanks averaged, mean of replicates
Residues (chain): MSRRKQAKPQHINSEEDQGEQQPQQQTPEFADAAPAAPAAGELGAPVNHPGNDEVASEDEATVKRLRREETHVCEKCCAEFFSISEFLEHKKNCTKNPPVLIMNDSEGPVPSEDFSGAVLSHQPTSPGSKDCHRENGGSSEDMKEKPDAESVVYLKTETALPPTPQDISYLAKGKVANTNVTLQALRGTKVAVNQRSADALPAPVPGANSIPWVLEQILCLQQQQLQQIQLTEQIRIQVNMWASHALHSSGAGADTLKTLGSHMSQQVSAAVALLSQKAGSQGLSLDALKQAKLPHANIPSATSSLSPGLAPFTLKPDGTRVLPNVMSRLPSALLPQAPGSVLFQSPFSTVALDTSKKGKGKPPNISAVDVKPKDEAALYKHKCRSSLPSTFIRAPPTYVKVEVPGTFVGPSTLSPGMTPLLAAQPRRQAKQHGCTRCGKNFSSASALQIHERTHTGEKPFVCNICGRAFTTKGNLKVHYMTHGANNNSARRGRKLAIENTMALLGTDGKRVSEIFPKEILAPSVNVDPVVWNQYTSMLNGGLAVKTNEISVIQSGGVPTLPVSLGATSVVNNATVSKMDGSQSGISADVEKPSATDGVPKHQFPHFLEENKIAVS
`GTGTGCCA` gave an E-score of -0.171.
With `CTCTGACA` the E-score was 0.0607.
With `CGCATGCC` the E-score was -0.102.
With `GCGTGCCA` the E-score was -0.314.

Other studies, line by line
The fold induction of `PhoQ, residues 284 288 289 292 302 303 SVTLVV` is reported as 2.64 (PhoP, residues 12 14 15 18 19 LYHSL (Escherichia coli, UniProt P23836); Sort-seq, refers to: YFP reporter; E. coli; PhoQ-PhoP variant library, together with: 10 µM Mg2+; reference: high Mg2+ state, higher = stronger signaling).

Repeated from above (study 2):
`GGTTGGTGTGGTTGG (2'F-ANA at 6 8 9 10 12 13 14 15)` — result for “mean fluorescence intensity”: 101 a.u.
